Experimental data pooled from the literature.
A part holds a random share of what one study measured.

Block 1
Target: Max-binding protein MNT, bHLH-zipper, MAX partner unstated (MNT, Homo sapiens, UniProt Q99583, residues 220-300)
Method: protein-binding microarray
Form: double-stranded DNA, one strand shown
Matrix: in vitro
Tested at: not given
Notes: k-mer, scored over probes, only values ≥0.25
Direction: higher = stronger binding
Target sequence (chain): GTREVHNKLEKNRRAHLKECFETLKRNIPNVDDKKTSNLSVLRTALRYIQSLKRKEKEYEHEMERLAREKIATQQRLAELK
`ACGCACCC` has an E-score of 0.279.
The E-score of `TGCCCGCA` is reported as 0.278.
`CCCACGCA` has an E-score of 0.294.
`ATTACACG` has an E-score of 0.304.
The E-score of `CCGCACGC` is reported as 0.389.
With `GTGCAGAA` the E-score was 0.256.
With `ATGTGGGA` the E-score was 0.329.
`CACGCGTA` gave an E-score of 0.427.

Block 2
Target: Fragile X messenger ribonucleoprotein 1, C-terminal low-complexity region (Fmr1, Mus musculus, UniProt P35922)
Method: RNA Bind-n-Seq
Form: RNA
Matrix: in vitro
Tested at: 200 nM
Notes: whole 134-nt RNA, ends assumed
With: 150 mM KCl
Relative to: input library
Direction: higher = stronger binding
For `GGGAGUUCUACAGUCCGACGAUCAGUCCUGUGCUACACAUCGUAUGUACCGAAUCAAACCCAAAUUUAAAUUUUUUUAAAAAAGUAUUAUGUUACGCCGUUCGGAUCUGCACUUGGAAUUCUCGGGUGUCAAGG`, the log2 enrichment was 0.171.
For `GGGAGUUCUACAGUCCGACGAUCCACAGACAACACGCACCCACACAGACACAGAGGGAAGGGGUUGGGAUGGGGACAGGGUGCACAGCAGAAAGGGGUAGGACCCCAGCCCCUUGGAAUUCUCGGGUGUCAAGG`, the log2 enrichment was 1.2.
The log2 enrichment of `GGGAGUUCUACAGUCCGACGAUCCUGUGCUACACAUCGUAUGUACCGAAUCGGGCCCCCCCGGGCCCCCCCGGGGCCCCCCCGGGAAAGUAUUAUGUUACGCCGUUCGGAUCUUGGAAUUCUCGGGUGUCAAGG` is reported as -1.19.
The log2 enrichment of `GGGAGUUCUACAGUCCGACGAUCUCAAGUCCUGUGCUACACAUCGUAUGUACCGAAUCGGUUUGGUUUUUGGUUUGGAAAGUAUUAUGUUACGCCGUUCGGAUCUGCACUUCCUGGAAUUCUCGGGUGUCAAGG` is reported as -0.548.
`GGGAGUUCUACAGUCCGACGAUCGCAGGAAGUAAAAACAAAUGGAAAAAAUUCGGAUAGUGGCAGGGGUGGGGGUUGCUAAGGAAAGGGUGGGAUGGGAGUGGGUAAAGAGUUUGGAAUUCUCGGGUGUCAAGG` gave a log2 enrichment of 0.327.
`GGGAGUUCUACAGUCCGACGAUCGUCCUGUGCUACACAUCGUAUGUACCGAAUCAAAUUUUUAAAUUUUUAAAUUUUUAAAAAAGUAUUAUGUUACGCCGUUCGGAUCUGCACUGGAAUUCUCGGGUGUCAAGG` has a log2 enrichment of -1.16.
`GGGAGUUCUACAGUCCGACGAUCUCAAGUCCUGUGCUACACAUCGUAUGUACCGAAUCGGAAAAAAAGGUGGUUUGGAAAGUAUUAUGUUACGCCGUUCGGAUCUGCACUUCCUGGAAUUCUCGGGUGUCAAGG` has a log2 enrichment of -0.835.
The log2 enrichment of `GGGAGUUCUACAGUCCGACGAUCUGGGAGGUGGAUUUUGUUUAUUUUUUUAGCUCAUUUCCAGGGGUGGGAAUUUUUUCUUAAUAUGUGUCAUGAAUAAAGUUGUUUUUGAAAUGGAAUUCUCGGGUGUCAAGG` is reported as 0.227.

Block 3
Target: Krueppel-like factor 3, full length (KLF3, Homo sapiens, UniProt P57682, residues 1-345)
Chain of UniProt P57682 (whole entry, looked up): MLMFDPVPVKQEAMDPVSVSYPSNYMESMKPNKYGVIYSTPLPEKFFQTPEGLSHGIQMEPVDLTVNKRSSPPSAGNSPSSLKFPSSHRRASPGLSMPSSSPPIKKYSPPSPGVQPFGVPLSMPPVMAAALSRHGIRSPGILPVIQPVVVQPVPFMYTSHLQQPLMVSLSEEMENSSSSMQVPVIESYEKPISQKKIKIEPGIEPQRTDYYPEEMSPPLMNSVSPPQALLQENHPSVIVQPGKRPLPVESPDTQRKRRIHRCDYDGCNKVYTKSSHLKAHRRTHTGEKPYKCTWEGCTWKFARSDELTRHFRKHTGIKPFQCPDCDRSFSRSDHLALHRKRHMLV
Method: protein-binding microarray
Form: hairpin DNA
Matrix: in vitro
Tested at: not given
Notes: whole hairpin DNA, median over replicate spots
Relative to: not given
Direction: higher = stronger binding
`GAGGCCGACCGCCGCCAGCCTCCTGGCTGGCGGCGGTCGGCCTCACACTC` gave a median fluorescence of 8410 a.u.
For `GAGGCCGACCACGCCGAGCCTCCTGGCTCGGCGTGGTCGGCCTCACACTC (5mC at 15 29)`, the median fluorescence was 9340 a.u.
`GAGGCCGACCACTCCCAGCCTCCTGGCTGGGAGTGGTCGGCCTCACACTC` gave a median fluorescence of 8180 a.u.
`GAGGCCGACCACGCCCAGCCTCCTGGCTGGGCGTGGTCGGCCTCACACTC (5mC at 10)` has a median fluorescence of 8330 a.u.
The median fluorescence of `GAGGCCGACCGCGCCCAGCCTCCTGGCTGGGCGCGGTCGGCCTCACACTC (5mC at 10)` is reported as 8430 a.u.
For `GAGGCCGACCGCGTCCAGCCTCCTGGCTGGACGCGGTCGGCCTCACACTC`, the median fluorescence was 8400 a.u.
The median fluorescence of `GAGGCCGACGACGCCCAGCCTCCTGGCTGGGCGTCGTCGGCCTCACACTC (5mC at 9)` is reported as 8570 a.u.
For `GAGGCCTACCGCGCCCAGCCTCCTGGCTGGGCGCGGTAGGCCTCACACTC`, the median fluorescence was 8550 a.u.

Single results of other studies
`YFYYNAFHW`: binding “inactive” (HLA class I histocompatibility antigen, C alpha chain, allele C*04:01 (Homo sapiens, UniProt P10321); peptide-MHC binding; peptide; concentration not given).

Repeated from above (block 2):
The log2 enrichment of `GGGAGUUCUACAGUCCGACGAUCCUGUGCUACACAUCGUAUGUACCGAAUCGGGCCCCCCCGGGCCCCCCCGGGGCCCCCCCGGGAAAGUAUUAUGUUACGCCGUUCGGAUCUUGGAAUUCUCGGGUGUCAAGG` is reported as -1.19.
